Measurements collected from several papers.
Each line is one published result; not all experiments were run side by side. Several values in a cell are separate wells, animals, samples, runs or records. ± marks the error that the study gave.
Drd3: D(3) dopamine receptor (Drd3, Rattus norvegicus, UniProt P19020)
Chain of UniProt P19020 (whole entry, looked up): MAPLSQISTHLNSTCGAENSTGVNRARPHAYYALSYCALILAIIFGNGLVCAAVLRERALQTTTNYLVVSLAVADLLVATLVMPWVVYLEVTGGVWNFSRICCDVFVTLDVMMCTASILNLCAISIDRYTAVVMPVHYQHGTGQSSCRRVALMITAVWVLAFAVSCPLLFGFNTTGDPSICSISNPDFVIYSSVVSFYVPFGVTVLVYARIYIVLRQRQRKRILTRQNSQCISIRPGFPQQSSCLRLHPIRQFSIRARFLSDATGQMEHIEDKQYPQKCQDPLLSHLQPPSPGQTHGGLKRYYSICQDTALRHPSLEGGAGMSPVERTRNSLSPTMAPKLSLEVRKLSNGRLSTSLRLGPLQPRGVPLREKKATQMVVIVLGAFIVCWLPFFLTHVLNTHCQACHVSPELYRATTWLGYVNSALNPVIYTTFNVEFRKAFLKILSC
P2RY1: P2Y purinoceptor 1 (P2RY1, Homo sapiens, UniProt P47900)
Chain of UniProt P47900 (whole entry, looked up): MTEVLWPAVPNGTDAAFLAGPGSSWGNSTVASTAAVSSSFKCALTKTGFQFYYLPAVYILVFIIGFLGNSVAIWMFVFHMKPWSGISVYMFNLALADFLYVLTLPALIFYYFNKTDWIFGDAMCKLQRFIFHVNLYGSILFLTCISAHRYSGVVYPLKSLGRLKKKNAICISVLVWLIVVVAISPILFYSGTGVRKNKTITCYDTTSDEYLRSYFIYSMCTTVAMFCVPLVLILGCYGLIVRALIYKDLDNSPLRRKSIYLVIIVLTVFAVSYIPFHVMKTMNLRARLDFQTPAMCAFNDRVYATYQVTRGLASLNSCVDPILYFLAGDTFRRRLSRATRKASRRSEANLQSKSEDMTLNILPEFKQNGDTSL
HCRTR1: Orexin/Hypocretin receptor type 1 (HCRTR1, Homo sapiens, UniProt O43613)
Chain of UniProt O43613 (whole entry, looked up): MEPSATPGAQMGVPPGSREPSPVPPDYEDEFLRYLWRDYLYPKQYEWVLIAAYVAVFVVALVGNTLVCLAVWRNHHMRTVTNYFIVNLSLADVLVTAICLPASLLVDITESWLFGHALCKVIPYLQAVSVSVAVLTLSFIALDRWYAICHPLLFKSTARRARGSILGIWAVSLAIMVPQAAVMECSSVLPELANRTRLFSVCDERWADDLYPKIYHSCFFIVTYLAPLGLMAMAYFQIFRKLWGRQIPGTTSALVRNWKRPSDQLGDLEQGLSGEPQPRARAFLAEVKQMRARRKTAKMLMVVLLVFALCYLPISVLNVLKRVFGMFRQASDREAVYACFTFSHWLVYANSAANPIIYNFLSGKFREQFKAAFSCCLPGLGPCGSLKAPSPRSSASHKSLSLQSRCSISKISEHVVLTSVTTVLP
MSP: Male-specific submandibular salivary gland protein (MSP, Mesocricetus auratus, UniProt Q9QXU1)
Chain of UniProt Q9QXU1 (whole entry, looked up): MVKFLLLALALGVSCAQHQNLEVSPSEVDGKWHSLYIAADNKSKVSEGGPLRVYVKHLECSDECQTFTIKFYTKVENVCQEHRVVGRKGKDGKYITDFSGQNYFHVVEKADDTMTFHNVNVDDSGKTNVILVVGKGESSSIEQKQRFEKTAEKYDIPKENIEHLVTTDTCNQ
Cnr1: Cannabinoid receptor 1 (Cnr1, Rattus norvegicus, UniProt P20272)
Chain of UniProt P20272 (whole entry, looked up): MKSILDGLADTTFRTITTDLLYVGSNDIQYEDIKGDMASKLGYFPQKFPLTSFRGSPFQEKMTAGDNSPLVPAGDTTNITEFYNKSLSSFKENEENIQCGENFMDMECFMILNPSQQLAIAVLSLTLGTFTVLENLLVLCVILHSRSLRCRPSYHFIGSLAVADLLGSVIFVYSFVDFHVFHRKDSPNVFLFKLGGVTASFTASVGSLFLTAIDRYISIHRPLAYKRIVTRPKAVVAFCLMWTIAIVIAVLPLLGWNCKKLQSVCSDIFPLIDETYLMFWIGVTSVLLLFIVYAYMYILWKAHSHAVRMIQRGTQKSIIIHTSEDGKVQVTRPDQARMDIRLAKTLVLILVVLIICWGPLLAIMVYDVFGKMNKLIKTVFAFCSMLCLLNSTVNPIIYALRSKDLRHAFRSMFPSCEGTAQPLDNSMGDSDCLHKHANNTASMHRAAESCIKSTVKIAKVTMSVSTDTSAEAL
HRH1: Histamine H1 receptor (HRH1, Homo sapiens, UniProt P35367)
Chain of UniProt P35367 (whole entry, looked up): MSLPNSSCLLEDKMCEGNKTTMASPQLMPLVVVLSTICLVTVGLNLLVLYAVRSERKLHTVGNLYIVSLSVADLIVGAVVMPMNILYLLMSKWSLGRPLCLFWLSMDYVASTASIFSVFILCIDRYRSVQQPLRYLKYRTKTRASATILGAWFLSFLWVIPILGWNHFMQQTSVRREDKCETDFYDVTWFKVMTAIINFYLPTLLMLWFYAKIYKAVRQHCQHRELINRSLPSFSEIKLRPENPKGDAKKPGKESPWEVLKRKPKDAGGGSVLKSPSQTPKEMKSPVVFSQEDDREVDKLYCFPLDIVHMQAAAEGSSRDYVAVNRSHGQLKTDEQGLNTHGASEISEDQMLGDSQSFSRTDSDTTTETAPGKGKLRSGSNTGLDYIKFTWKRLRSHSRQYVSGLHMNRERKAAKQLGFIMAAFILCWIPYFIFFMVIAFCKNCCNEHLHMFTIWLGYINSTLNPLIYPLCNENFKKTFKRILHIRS
Na(+)/H(+) exchange regulatory cofactor NHE-RF2 PDZ domain 2: Na(+)/H(+) exchange regulatory cofactor NHE-RF2, PDZ domain 2 (Homo sapiens, UniProt Q15599)
Chain of UniProt P20813 (whole entry, unmodified, looked up): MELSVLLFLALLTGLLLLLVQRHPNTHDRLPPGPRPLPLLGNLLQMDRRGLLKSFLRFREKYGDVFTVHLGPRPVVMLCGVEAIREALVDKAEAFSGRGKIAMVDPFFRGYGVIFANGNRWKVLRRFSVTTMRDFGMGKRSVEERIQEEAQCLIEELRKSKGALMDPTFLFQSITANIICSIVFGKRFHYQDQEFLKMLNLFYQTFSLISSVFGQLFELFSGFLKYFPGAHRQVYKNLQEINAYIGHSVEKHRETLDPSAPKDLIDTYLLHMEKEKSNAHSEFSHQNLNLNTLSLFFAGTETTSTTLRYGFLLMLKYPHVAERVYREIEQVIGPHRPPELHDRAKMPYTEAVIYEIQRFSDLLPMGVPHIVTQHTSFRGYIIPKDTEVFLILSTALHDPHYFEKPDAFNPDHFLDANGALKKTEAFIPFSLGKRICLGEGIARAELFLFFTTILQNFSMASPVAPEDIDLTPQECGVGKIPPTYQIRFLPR
Chain of UniProt Q15599 (whole entry, looked up): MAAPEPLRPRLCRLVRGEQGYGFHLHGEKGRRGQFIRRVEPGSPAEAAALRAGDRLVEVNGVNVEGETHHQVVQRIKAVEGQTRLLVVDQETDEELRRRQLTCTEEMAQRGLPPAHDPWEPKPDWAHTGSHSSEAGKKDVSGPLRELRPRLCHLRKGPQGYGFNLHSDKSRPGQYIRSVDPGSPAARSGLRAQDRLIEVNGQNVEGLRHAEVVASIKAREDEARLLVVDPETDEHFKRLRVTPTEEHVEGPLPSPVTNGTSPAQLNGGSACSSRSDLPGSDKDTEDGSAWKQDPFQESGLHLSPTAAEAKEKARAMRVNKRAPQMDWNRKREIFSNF
Chain of UniProt P30542 (whole entry, looked up): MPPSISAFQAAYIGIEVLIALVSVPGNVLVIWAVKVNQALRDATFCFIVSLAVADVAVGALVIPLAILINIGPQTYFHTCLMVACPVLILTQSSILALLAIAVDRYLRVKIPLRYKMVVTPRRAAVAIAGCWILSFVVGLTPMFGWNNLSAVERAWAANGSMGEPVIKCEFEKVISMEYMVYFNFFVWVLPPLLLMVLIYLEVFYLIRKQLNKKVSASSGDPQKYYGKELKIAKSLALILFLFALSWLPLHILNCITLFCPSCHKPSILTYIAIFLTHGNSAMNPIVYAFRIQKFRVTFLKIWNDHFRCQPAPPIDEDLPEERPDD
Chain of UniProt P27695 (whole entry, looked up): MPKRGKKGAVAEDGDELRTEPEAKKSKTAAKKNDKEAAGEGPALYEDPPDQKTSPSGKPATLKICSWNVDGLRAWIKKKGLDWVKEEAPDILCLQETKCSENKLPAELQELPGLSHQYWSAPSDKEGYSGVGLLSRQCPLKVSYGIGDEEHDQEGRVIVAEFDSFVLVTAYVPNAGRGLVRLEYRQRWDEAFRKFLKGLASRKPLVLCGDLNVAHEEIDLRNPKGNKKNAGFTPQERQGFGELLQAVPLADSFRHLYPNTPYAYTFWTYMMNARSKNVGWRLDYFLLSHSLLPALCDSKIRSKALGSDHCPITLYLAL
Chain of UniProt Q9GZU7 (whole entry, looked up): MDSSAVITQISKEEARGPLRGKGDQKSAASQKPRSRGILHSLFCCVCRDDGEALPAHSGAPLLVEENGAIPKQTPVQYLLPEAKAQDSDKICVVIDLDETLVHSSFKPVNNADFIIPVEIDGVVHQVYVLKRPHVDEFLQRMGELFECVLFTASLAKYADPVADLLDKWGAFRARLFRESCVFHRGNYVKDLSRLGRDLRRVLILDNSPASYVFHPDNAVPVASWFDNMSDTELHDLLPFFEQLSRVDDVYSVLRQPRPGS
Chain of UniProt P08682 (whole entry, looked up): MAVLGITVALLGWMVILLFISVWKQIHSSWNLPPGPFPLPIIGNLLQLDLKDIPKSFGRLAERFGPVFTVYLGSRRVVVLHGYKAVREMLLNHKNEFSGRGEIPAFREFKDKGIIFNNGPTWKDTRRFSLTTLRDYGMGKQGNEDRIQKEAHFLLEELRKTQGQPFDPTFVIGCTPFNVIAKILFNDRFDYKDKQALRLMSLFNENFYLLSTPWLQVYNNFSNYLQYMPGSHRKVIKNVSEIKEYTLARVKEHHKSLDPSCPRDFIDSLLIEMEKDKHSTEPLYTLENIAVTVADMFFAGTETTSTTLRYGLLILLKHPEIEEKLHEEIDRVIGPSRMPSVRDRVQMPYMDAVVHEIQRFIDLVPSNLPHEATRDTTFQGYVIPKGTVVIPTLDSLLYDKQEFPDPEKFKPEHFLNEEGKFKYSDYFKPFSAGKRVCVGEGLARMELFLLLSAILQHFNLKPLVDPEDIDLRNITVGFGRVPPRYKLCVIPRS
Chain of UniProt O94760 (whole entry, looked up): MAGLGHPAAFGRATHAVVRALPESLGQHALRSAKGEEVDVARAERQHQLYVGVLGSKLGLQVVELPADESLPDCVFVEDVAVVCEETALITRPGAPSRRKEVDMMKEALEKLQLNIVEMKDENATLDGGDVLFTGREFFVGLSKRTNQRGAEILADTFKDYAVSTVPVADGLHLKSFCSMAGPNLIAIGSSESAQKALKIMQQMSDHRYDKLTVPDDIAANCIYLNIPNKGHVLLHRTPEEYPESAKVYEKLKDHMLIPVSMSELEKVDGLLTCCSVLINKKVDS

SMILES | tested on | assay | system | setting | endpoint | result
CC(C)[C@H](NC(=O)[C@@H]1CCCN1C(=O)[C@H](CCCNC(=N)N)NC(=O)[C@H](CS)NC(=O)[C@H](Cc1c[nH]c2ccccc12)NC(=O)[C@H](CCCNC(=N)N)NC(=O)[C@@H](Cc1ccccc1)NC(=O)[C@H](Cc1c[nH]cn1)NC(=O)[C@H](CCC(=O)O)NC(=O)[C@H](CS)NC(=O)[C@H](CS)NC(=O)[C@H](CCCCN)NC(=O)[C@@H]1CC(=O)N[C@@H](CCCNC(=N)N)C(=O)N[C@@H](C)C(=O)N[C@@H](CC(=O)O)C(=O)N[C@H](Cc2ccc(O)cc2)C(=O)N1)C(N)=O [technetium-99m labelled] | – | – | C57 mice, heart | intravenous, 0.037 MBq, 4 h | tissue uptake | 0.2 ± 0.08 %ID/g
O=C(/C=C/C=C/c1ccc2c(c1)OCO2)N1CCCCC1 | NR1I2 (Homo sapiens, UniProt O75469) | reporter gene, agonist, refers to: CYP3A4 promoter luciferase | HepG2 without PXR transfection | 24 h | EC50 | 780 nM
CC(=O)N(CCCP(=O)(O)O)OCc1ccc(-c2ccccc2)cc1 | 1-deoxy-D-xylulose 5-phosphate reductoisomerase, apicoplastic (DXR, Plasmodium falciparum, UniProt O96693) | inhibitor, Lineweaver-Burk plot | – | with: DXP varied, NADPH 150 µM | Ki | 0.24 µM
CCCN(CCC1(O)CC(NC(=O)c2ccccc2)C1)[C@H]1CCc2nc(N)sc2C1 (stereo in doubt) | Drd3 | ligand displacement, radioligand | – | cell membranes | Ki | 0.00074 µM
N=C(N)CCl | DDAH1 (Homo sapiens, UniProt O94760) | time-dependent inactivation, inactivator | – | pH 7.3 | Ki | 310 ± 30 µM
CC[C@@H](C(=O)O)[C@H]1CCN[C@@H]1C(=O)O | NMDA receptor, rat | binding | cortical synaptosomes | with: [3H]-CGP 39653 | Ki | > 100 µM
CCCN(CCC1(O)CC(NS(=O)(=O)c2cccc(OC)c2)C1)[C@H]1CCc2nc(N)sc2C1 (stereo in doubt) | Drd3 | ligand displacement, radioligand | – | cell membranes | Ki | 0.0016 µM
CNc1nc(C#CCCCCC(=O)NCCN)nc2c1ncn2[C@H]1C[C@H](OP(=O)(O)O)[C@]2(COP(=O)(O)O)C[C@H]12 | P2RY1 | ligand displacement, radioligand | – | cell membranes | Ki | 3.96 µM
COc1ccc(/C(Cc2ccccc2)=N\Nc2ccc([N+](=O)[O-])c([N+](=O)[O-])c2)cc1 | APEX1 (Homo sapiens, UniProt P27695) | enzyme activity, inhibitor | – | – | Ki | 6.7 µM
COc1cc2c(cc1OC)C(Cc1ccc(O)c(N)c1)N(CC(=O)NCc1ccccc1)CC2 (centres unmarked) | HCRTR1 | calcium signal, antagonist, fluorescence | – | – | Kb | > 10000 nM
CCCN(CCN1CCN(c2ccc(-c3ccncc3)cc2)CC1)C1CCc2ccc(O)cc2C1 (single isomer, unassigned; (+)) | Drd3 | ligand displacement, radioligand | – | cell membranes | Ki | 0.00078 µM
CCCN(CC[C@]1(O)C[C@H](NS(=O)(=O)c2ccccc2OC)C1)[C@H]1CCc2nc(N)sc2C1 (relative stereo) | dopamine D1-like receptor, rat | radioligand binding | rat striatal membranes | with: [3H]SCH23390 | Ki | 1.81 ± 0.093 µM
CC12CCC(CC1)C(C)(C)O2 | MSP | binding, fluorescence displacement | – | with: 1-AMA 2 µM | Ki | 0.31 µM
Cc1c(C(=O)NN2CCCCC2)nn(-c2ccc(Cl)cc2Cl)c1/N=N/c1ccccc1 | Cnr1 | radioligand binding | rat brain membranes | trans isomer, 454 nm light, with: [3H]CP55940 0.6 nM | Ki | 0.458 ± 0.239 µM
N=C(N)NCCCCCCNC(=N)NCCCc1c[nH]cn1 | HRH1 | ligand displacement, radioligand | – | cell membranes | Ki | > 10 µM
CNc1nc(C#CCCCc2cn(CCNC(C)=O)nn2)nc2c1ncn2[C@H]1C[C@H](OP(=O)(O)O)[C@]2(COP(=O)(O)O)C[C@H]12 | P2RY1 | ligand displacement, radioligand | – | cell membranes | Ki | 2.7 µM
CSCC[C@H](NC(=O)[C@@H](N)CC(C)C)C(=O)N[C@@H](CC(=O)O)C(=O)N[C@@H](CO)C(=O)N[C@H](C(=O)N[C@@H](CC(C)C)C(=O)O)[C@@H](C)O | Na(+)/H(+) exchange regulatory cofactor NHE-RF2 PDZ domain 2 | binding, fluorescence polarization competition | – | with: FITC-FD2 8-mer reporter | Ki | 28.4 ± 1.8 µM
CCC(C)n1ncn(-c2ccc(N3CCN(c4ccc(OCC5COC(Cn6cncn6)(c6ccc(Cl)cc6Cl)O5)cc4)CC3)cc2)c1=O (centres unmarked) | Cytochrome P450 2B6 (CYP2B6, Homo sapiens, UniProt P20813, K262R) | competitive inhibitor, reconstituted P450 system | – | 5 min, pH 7.4, with: 7-MFC substrate | Ki | 4.4 µM and 4.34 µM and 3.84 µM
N=c1ccc2c(-c3ccc(C(=O)NCCCCCCn4cc(CCCC(=O)Nc5nc6ccc(Cl)cc6c6nc(-c7ccco7)nn56)nn4)cc3C(=O)O)c3ccc(N)c(S(=O)(=O)O)c3oc-2c1S(=O)(=O)O | ADORA1 (Homo sapiens, UniProt P30542) | ligand displacement, radioligand | – | cell membranes | Ki | 0.087 µM
CCCN(CCC1(O)CC(NC(=O)c2ccc(-c3noc(C)n3)cc2)C1)[C@H]1CCc2nc(N)sc2C1 (stereo in doubt) | dopamine D1-like receptor, rat | radioligand binding | rat striatal membranes | with: [3H]SCH23390 | Ki | 19.2 ± 2.55 µM
COCCCOc1ccnc(C[S+]([O-])c2nc3ccccc3[nH]2)c1C (centres unmarked) | CTDSP1 (Homo sapiens, UniProt Q9GZU7) | phosphatase activity, inhibitor | – | with: p-nitrophenyl phosphate | Ki | 5 ± 2 µM

SMILES | tested on | assay | system | setting | endpoint | result
O=C(O)c1c(Cl)c(Cl)c(Cl)c(Cl)c1-c1c2cc(I)c(=O)c(I)c-2oc2c(I)c(O)c(I)cc12 | Dual specificity protein phosphatase 5 (Homo sapiens, UniProt Q16690) | enzyme activity, noncompetitive inhibitor | – | 15 min, dark | Ki | 2.27 ± 0.14 µM
CCCN(CC[C@]1(O)C[C@@H](NC(=O)c2cccc(OC)c2)C1)[C@H]1CCc2nc(N)sc2C1 (relative stereo) | Drd3 | ligand displacement, radioligand | – | cell membranes | Ki | 0.00076 µM
Cc1cc[nH]n1 | CYP2E1 (Oryctolagus cuniculus, UniProt P08682) | inhibitor | – | pH 7.4, 37 °C, catalytic site, CPR-K56Q and cytochrome b5, with: 4-nitrophenol | Ki | 11 µM
N=C(N)NCCC[C@H](NC(=O)[C@@H](N)Cc1ccccc1)C(=O)NCCOCCOCC(=O)NCC(=O)N1CCCC[C@H]1C(N)=O | FAP (Homo sapiens, UniProt Q12884) | enzyme activity, inhibitor, fluorescence | – | pH 7.5 | Ki | > 1000 µM
C=CCc1ccc(O)c(OC)c1 | MSP | binding, fluorescence displacement | – | with: 1-AMA 2 µM | Ki | 0.35 µM
N=C(NCCCCCCNC(N)=O)NCCCc1c[nH]cn1 | HRH1 | ligand displacement, radioligand | – | cell membranes | Ki | > 10 µM
COCCN1C(=O)C(O)=C(C(=O)c2ccc(C)cc2)C1c1cc(OC)ccc1OC (centres unmarked) | FPR1 (Homo sapiens, UniProt P21462) | ligand displacement in cells | – | – | Ki | < 2 µM
O=C(O)C(CCO)[C@@H]1CCN[C@H]1C(=O)O (relative stereo) | NMDA receptor, rat | binding | cortical synaptosomes | with: [3H]-CGP 39653 | Ki | 61 µM
NC(=S)NCCCc1c[nH]cn1 | HRH1 | ligand displacement, radioligand | – | cell membranes | Ki | > 100 µM
CCCCCCOc1ccc(CC2c3cc(OC)c(OC)cc3CCN2CC(=O)NCc2ccccc2)cc1OC (centres unmarked) | HCRTR1 | calcium signal, antagonist, fluorescence | – | – | Kb | 120 nM
Cc1c(C(=O)NCc2cccc(/N=N/c3ccccc3)c2)nn(-c2ccc(Cl)cc2Cl)c1-c1ccc(Cl)cc1 | Cnr1 | radioligand binding | rat brain membranes | trans isomer, 454 nm light, with: [3H]CP55940 0.6 nM | Ki | 0.377 ± 0.243 µM
OC[C@H]1OC(O)[C@H](O)[C@@H](O)[C@H]1O (some centres unmarked) | Probable beta-galactosidase A (lacA, Emericella nidulans, UniProt Q5BFC4) | p-nitrophenyl glucoside hydrolysis, competitive inhibitor | Aspergillus nidulans | 37 °C, with: 5 mM p-nitrophenyl glucoside | Ki | 10200 µM
O=C(NNC(=NS(=O)(=O)c1ccc(-n2nc(C(F)(F)F)cc2-c2cccs2)cc1)N1CCCC1)c1ccc(Cl)cc1 | Aminopeptidase N (ANPEP, Homo sapiens, UniProt P15144) | enzyme activity, inhibitor | human placenta | 30 min preincubation, 37 °C, with: L-Leu-AMC substrate | Ki | 1.01 µM
CCCCCC(C)=O | MSP | binding, fluorescence displacement | – | with: 1-AMA 2 µM | Ki | 3.46 µM
CCOC(=O)C1=CC(C)(C(=O)c2ccccc2)CCC1=O (centres unmarked) | MAPK14 (Homo sapiens, UniProt Q16539) | ligand displacement, FP | – | – | Ki | 10.9 µM
CCCN(CCC1(O)CC(NS(=O)(=O)c2ccccc2F)C1)[C@H]1CCc2nc(N)sc2C1 (stereo in doubt) | Drd3 | ligand displacement, radioligand | – | cell membranes | Ki | 0.001 µM
N=C(NCCCCCCCCCCNC(N)=O)NCCCc1c[nH]cn1 | HRH1 | ligand displacement, radioligand | – | cell membranes | Ki | > 3.16 µM
CCCN(CC[C@]1(O)C[C@H](NC(=O)c2cccc(Cl)c2)C1)[C@H]1CCc2nc(N)sc2C1 (relative stereo) | dopamine D1-like receptor, rat | radioligand binding | rat striatal membranes | with: [3H]SCH23390 | Ki | 28.7 ± 2.64 µM
CC(C)[C@H](NC(=O)[C@H](Cc1c[nH]c2ccccc12)NC(=O)[C@@H](NC(=O)[C@H](CC(=O)O)NC(=O)[C@H](Cc1ccccc1)NC(=O)CN)[C@@H](C)O)C(=O)O | Na(+)/H(+) exchange regulatory cofactor NHE-RF2 PDZ domain 2 | fluorescence polarization competition | – | with: FITC-labelled LPA2 peptide tracer | Ki | 4.6 ± 1.5 µM
CCCC[C@H](NC(C)=O)C(=O)N[C@H]1CCC(=O)NC[C@@H](C(=O)N[C@@H](Cc2c[nH]c3ccccc23)C(N)=O)NC(=O)[C@H](CCCNC(=N)N)NC(=O)[C@@H](Cc2ccccc2)NC(=O)[C@H](Cc2c[nH]cn2)NC1=O | – | – | CD Sprague Dawley rat, female, plasma | subcutaneous, 5.0 mg/kg daily, day 1 | Vd/F | 10.1 L/kg

A few entries again:
SMILES | tested on | assay | system | setting | endpoint | result
C=CCc1ccc(O)c(OC)c1 | MSP | binding, fluorescence displacement | – | with: 1-AMA 2 µM | Ki | 0.35 µM
CC(=O)N(CCCP(=O)(O)O)OCc1ccc(-c2ccccc2)cc1 | 1-deoxy-D-xylulose 5-phosphate reductoisomerase, apicoplastic (DXR, Plasmodium falciparum, UniProt O96693) | inhibitor, Lineweaver-Burk plot | – | with: DXP varied, NADPH 150 µM | Ki | 0.24 µM
CNc1nc(C#CCCCCC(=O)NCCN)nc2c1ncn2[C@H]1C[C@H](OP(=O)(O)O)[C@]2(COP(=O)(O)O)C[C@H]12 | P2RY1 | ligand displacement, radioligand | – | cell membranes | Ki | 3.96 µM
COCCCOc1ccnc(C[S+]([O-])c2nc3ccccc3[nH]2)c1C (centres unmarked) | CTDSP1 (Homo sapiens, UniProt Q9GZU7) | phosphatase activity, inhibitor | – | with: p-nitrophenyl phosphate | Ki | 5 ± 2 µM
